Assay results pooled from the literature.
Several values in a cell are separate wells, animals, samples, runs or records. Numbers after ± are the reported error.
UniProt Q9UBE8, sequence (whole entry, looked up): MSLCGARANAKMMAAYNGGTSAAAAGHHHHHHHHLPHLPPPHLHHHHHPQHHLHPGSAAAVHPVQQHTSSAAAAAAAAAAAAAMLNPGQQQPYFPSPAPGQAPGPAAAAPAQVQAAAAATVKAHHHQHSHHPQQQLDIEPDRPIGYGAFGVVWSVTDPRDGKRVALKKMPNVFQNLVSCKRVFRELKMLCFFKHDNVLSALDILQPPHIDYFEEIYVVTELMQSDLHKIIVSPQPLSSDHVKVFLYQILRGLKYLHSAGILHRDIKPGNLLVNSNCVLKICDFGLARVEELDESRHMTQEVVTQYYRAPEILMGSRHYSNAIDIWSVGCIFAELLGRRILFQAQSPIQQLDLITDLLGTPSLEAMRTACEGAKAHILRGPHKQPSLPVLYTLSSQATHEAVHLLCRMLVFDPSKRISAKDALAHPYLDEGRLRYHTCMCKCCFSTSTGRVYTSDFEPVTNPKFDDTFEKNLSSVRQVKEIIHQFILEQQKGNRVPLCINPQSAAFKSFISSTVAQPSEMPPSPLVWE

| Compound | target or system | assay | system | conditions | scale | measurement | value |
| --- | --- | --- | --- | --- | --- | --- | --- |
| Cc1cc(C(=O)Nc2nc3cccc(C)c3n2[C@H]2CCCCN(C(=O)/C=C/CN(C)C)C2)ccn1 | Trypanosoma brucei brucei | – | 2T1 CLK1 overexpressing | 0.0195 µM, compound pretreated | relative to: maximum | survival | 157% and 167% and 153% and 136% |
| COc1ccccc1-c1n[nH]c2nc(NC3CCN(C(=O)Cc4ccc(F)cc4F)CC3)ncc12 | – | bead binding, competition bead pull-down, item: LINJ.36.2790 | Leishmania donovani extract | 10 µM | relative to: vehicle | relative abundance | 0.89 |
| CC(C)(C)C(=O)OCOP(=O)(OCOC(=O)C(C)(C)C)C1CCCN(O)C1=O (stereo not drawn) | T47D | – | – | – | – | log TGI | -4.75 log M |
| O=C1NC2(CC2)COc2ncc(F)cc2[C@H]2COCCN2c2ccn3ncc1c3n2 | – | – | Sprague-Dawley rat, male, serum | oral, 10 mg/kg/day, 4 weeks daily, end of recovery period | – | total cholesterol | 1.28 ± 0.4 mmol/L |
| O=C(O)c1ccc(-c2nc(-c3ccccc3Cl)c3sccn23)cc1 | – | ELISA, item: thrombopoietin | mouse, post-5-FU, plasma | dose not given, day 10 post-5-FU | relative to: PBS/PEG control | plasma TPO level | 1.4 fold |
| COc1ccccc1-c1n[nH]c2nc(N[C@H]3CC[C@H](NS(=O)(=O)CC(C)C)CC3)ncc12 | – | bead binding, competition bead pull-down, item: LINJ.36.2130 | Leishmania donovani extract | 10 µM | relative to: vehicle | relative abundance | 1.14 |
| CC(C)[C@@H]1NC(=O)[C@@H]2CCCN2C(=O)[C@@H](C(C)C)NC(=O)[C@H]2CCCN2C(=O)[C@H](C(C)C)NC(=O)[C@@H]2CCCN2C(=O)[C@@H](C(C)C)NC(=O)[C@H]2CCCN2C(=O)[C@H](C(C)C)NC(=O)[C@@H]2CCCN2C(=O)[C@@H](C(C)C)NC(=O)[C@H]2CCCN2C1=O | – | – | sheep lipid bilayer | 10 µM, pH 7.4, 23 °C, added: 10 mM K+ vs Cs chloride | – | bi-ionic potential | -5 mV |
| CN(C)[C@H]1C[C@@]23CC[C@@]4(O2)C(=CC[C@]2(C)[C@@H](c5ccc6ccncc6c5)CC[C@H]24)C=C3[C@@H](O)[C@@H]1O | NLK (Homo sapiens, UniProt Q9UBE8) | ATP probe labelling, inhibitor, KiNativ profiling | – | 1 µM | – | inhibition | 15.1% |
| CC(C)C[C@@H]1NC(=O)[C@@H](Cc2c[nH]c3ccccc23)NC(=O)[C@H](CCCNC(=N)N)NC(=O)[C@@H](CCC(=O)O)NC(=O)[C@H](CCC(N)=O)NC(=O)[C@@H](CCC(=O)O)NC(=O)[C@H](CCCNC(=N)N)NC(=O)[C@@H](Cc2c[nH]c3ccccc23)NC1=O | – | Luminex, item: Eotaxin | LDLr-/- mice, Western diet, liver | dose not given, 4 weeks | – | cytokine level | 1200 ± 390 pg/g tissue |
| Cc1ccc(S(=O)(=O)N2CC2C(=O)N(C)C)cc1 (stereo not drawn) | – | – | mouse, Lewis lung carcinoma | intraperitoneal, 170 mg/kg, 16 doses, day 10 | – | tumour volume | 527 mm3 |
| CCCCCCCCCCCC1CC(=O)NC(CC(N)=O)C(=O)NC(Cc2ccc(O)cc2)C(=O)NC(CC(N)=O)C(=O)NC(CCC(N)=O)C(=O)N2CCCC2C(=O)NC(CC(N)=O)C(=O)NC(CO)C(=O)N1 (stereo not drawn) | – | calcein leakage | DOPC/DOPG/CHOL liposomes | concentration not given, added: 40 mM CaCl2 | – | fusion time constant | 79 ± 6 min |
| CCN(Cc1ccccc1)C(=O)CCc1nc(CN2CCN(C(=O)Cc3ccc(OC)c(OC)c3)CC2)no1 | – | current clamp | DRG neurons, naive rat | 1 µM | – | resting membrane potential | -58.1 ± 1.57 mV |

A few entries again:
| Compound | target or system | assay | system | conditions | scale | measurement | value |
| --- | --- | --- | --- | --- | --- | --- | --- |
| CC(C)(C)C(=O)OCOP(=O)(OCOC(=O)C(C)(C)C)C1CCCN(O)C1=O (stereo not drawn) | T47D | – | – | – | – | log TGI | -4.75 log M |
| O=C1NC2(CC2)COc2ncc(F)cc2[C@H]2COCCN2c2ccn3ncc1c3n2 | – | – | Sprague-Dawley rat, male, serum | oral, 10 mg/kg/day, 4 weeks daily, end of recovery period | – | total cholesterol | 1.28 ± 0.4 mmol/L |
